Assay results gathered from unrelated publications.
Numbered parts are unrelated; each lists some results of a single study.

Series 1 — method: RNA Bind-n-Seq; form: RNA; matrix: in vitro; concentration: 200 nM; notes: whole 134-nt RNA, ends assumed; with: 150 mM KCl; relative to: input library; direction: higher = stronger binding
Target: Fragile X messenger ribonucleoprotein 1, C-terminal low-complexity region (Fmr1, Mus musculus, UniProt P35922)
For `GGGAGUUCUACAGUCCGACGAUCUGCCCUCCGUGGAGUCUUUGUUUCGAAGUCCGAUAAAGGAAUCUCUAUUCCGGUCUUCUUCUAAAGAGUCUUUGGUACGAACAUCUUCCAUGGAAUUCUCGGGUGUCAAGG`, the log2 enrichment was -1.
The log2 enrichment of `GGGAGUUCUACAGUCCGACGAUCAGUCCUGUGCUACACAUCGUAUGUACCGAAUCGGUUUUUGGGUUUUUGGUUUUUGGGGAAAGUAUUAUGUUACGCCGUUCGGAUCUGCACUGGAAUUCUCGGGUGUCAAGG` is reported as -0.335.
For `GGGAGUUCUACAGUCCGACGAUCCAAAAACAACACGCACCCACACAGACACAGAGGGAAGGGGUUGGGAUGGGGACAGGGUGCACAGCAGGGCGGGGUAGGACCCCAGCCCCUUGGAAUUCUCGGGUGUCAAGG`, the log2 enrichment was 1.33.
`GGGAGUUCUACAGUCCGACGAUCCACAGAGAACACGCACCCACACAGACACAGAGGGAAGGGGUUGGGAUGGGGACAGGGUGCACAGCAGGGCGGGGUAGGACCCCAGCCCCUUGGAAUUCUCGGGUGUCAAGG` gave a log2 enrichment of 1.21.
The log2 enrichment of `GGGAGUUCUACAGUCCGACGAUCGUCCUGUGCUACACAUCGUAUGUACCGAAUCGGGGCCCCCGGGGCCCCCGGCCCCCGGGAAAGUAUUAUGUUACGCCGUUCGGAUCUGCAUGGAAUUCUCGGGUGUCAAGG` is reported as -0.505.
With `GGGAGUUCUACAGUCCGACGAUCUGGGAGGUAGAUUUUGUUUAUUUUUUUAGCUCAUUUCCAGGGGUGGGAAUUUUUUUUUAAUAUGUGUCAUGAAUAAAGUUGUUUUUGAAAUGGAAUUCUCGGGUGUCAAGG` the log2 enrichment was -0.486.
`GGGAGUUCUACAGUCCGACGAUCAGUCCUGUGCUACACAUCGUAUGUACCGAAUCGGGCCCCGGGCCCCGGGGCCCCGGGGAAAGUAUUAUGUUACGCCGUUCGGAUCUGCACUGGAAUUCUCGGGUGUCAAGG` gave a log2 enrichment of -1.21.
The log2 enrichment of `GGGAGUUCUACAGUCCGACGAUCAAGUCCUGUGCUACACAUCGUAUGUACCGAAUCGGGAAAAAGGAAAAAGGAAAAAGGAAAGUAUUAUGUUACGCCGUUCGGAUCUGCACUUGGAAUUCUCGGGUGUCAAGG` is reported as -0.829.
`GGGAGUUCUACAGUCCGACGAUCGUCCUGUGCUACACAUCGUAUGUACCGAAUCGGGGUUUUGGGGUUUUGGGUUUUGGGGAAAGUAUUAUGUUACGCCGUUCGGAUCUGCACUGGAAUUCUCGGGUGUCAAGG` gave a log2 enrichment of 0.597.

Series 2 — method: universal PBM; form: double-stranded DNA, one strand shown; matrix: in vitro; concentration: 600 nM; direction: higher = stronger binding
Target: Sal-like protein 4, full length isoform A (SALL4, Homo sapiens, UniProt Q9UJQ4, residues 1-1053)
Sequence of UniProt Q9UJQ4 (whole entry, looked up): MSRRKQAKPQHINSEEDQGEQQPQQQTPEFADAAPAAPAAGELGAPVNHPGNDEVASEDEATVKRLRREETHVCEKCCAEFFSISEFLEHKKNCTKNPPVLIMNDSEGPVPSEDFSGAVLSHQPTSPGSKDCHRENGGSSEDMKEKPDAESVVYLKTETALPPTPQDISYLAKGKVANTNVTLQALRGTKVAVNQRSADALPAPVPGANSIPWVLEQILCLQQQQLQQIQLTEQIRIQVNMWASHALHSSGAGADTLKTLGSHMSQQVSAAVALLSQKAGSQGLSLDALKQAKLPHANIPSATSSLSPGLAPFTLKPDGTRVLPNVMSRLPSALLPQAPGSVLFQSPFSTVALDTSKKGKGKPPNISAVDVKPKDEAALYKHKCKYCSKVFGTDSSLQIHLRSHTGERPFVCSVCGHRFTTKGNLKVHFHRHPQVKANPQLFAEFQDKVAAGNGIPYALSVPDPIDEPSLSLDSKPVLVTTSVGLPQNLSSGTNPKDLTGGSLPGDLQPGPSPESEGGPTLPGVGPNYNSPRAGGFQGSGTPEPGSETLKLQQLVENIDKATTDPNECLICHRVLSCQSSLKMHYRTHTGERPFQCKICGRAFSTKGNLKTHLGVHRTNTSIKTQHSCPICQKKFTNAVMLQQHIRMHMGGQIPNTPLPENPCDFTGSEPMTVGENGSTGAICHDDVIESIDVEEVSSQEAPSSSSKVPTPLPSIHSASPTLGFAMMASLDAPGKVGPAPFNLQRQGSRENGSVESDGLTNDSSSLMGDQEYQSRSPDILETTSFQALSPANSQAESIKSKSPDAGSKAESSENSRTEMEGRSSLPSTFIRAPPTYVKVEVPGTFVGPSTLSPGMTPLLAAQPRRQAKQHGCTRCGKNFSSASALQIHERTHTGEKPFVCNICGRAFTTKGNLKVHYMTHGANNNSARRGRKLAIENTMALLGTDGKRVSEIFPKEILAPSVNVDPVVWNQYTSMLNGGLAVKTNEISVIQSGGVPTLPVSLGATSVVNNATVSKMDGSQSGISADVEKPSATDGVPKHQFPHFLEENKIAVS
Notes: 8-mer, flanks averaged, mean of replicates
The E-score of `ATGCTAGG` is reported as 0.0761.
For `GCAATATA`, the E-score was 0.347.
The E-score of `GCAGGTAA` is reported as 0.101.
The E-score of `AGCGGCCA` is reported as -0.327.
With `CTAGCTCA` the E-score was -0.125.
`GCCGCGAA` has an E-score of -0.219.
`GGTCCTCA` gave an E-score of -0.142.
With `AGTTTAAA` the E-score was 0.212.
For `ACGCTGGG`, the E-score was -0.361.
With `ACTGTTCT` the E-score was 0.0774.
With `TCGCGTAA` the E-score was 0.126.
For `ACGTCGAT`, the E-score was -0.0418.
`CGTTCTAA` has an E-score of 0.065.
`CCTTCTTC` has an E-score of -0.0708.
For `CGAAATCC`, the E-score was 0.0105.
`CTCTGGTC` has an E-score of -0.135.
With `AGTGAGTA` the E-score was 0.107.
`CAGGATCC` has an E-score of -0.189.
The E-score of `TATGACGA` is reported as 0.258.
For `AACCATCA`, the E-score was 0.186.
`AATAAAGA` gave an E-score of 0.277.
`AAAGATGG` has an E-score of 0.0751.
With `ACGGATGC` the E-score was -0.0245.
For `ATGTTAGG`, the E-score was 0.195.
`ATCAGTTA` gave an E-score of 0.244.

Series 3 — method: RNA Bind-n-Seq; form: RNA; matrix: in vitro; concentration: not given; notes: RNA with constant flanks, ends assumed; relative to: input RNA pool; direction: higher = stronger binding
Target: RING finger protein unkempt homolog, zinc fingers 1-6, GST-SBP tag (UNK, Homo sapiens, UniProt Q9C0B0, residues 30-357)
Residues (chain): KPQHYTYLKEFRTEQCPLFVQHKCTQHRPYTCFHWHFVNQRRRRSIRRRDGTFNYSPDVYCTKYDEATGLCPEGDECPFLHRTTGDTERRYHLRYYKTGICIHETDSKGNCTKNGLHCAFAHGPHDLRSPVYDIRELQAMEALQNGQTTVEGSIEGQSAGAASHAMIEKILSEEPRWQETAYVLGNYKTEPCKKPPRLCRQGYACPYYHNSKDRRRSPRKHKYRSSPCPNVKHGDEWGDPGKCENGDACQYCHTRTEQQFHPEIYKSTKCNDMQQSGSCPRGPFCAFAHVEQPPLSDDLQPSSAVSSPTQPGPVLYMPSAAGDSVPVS
With `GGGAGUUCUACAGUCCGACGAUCUCAAGAAGCAUCGUGUCUGGCGUUGUGGGGAUGAACUUUUUGUUUUGUUUCUUCCUUUUUCCGUUCUUCAAAGAUAGGGAGGGAAGGGGGAACAUGAGCCUUUGUUGCUAUCAAUCCAAGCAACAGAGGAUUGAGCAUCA` the bound/input enrichment was 0.123 ratio.
`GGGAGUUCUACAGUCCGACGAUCACACAUAGAGAAGCUGCAUUGUGGAUUAUAUGGGAAUCACUUUGUGAUGCUUUCUGCUGUCCGUUUUUCUUGGGUUUUUGUUUGUUUUGUUUGCAAAUCUGAUGUCUCAUCACUGCAGGUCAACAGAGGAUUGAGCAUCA` has a bound/input enrichment of 0.384 ratio.
`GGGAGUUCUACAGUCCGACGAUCUUGUUUUGCUCAUUUGAAGUCAUUUGCCAUUUUUUUGGCCUUUUGUGGAACUCUGCUGCUUUCCGAAGAAUUAUGAAAAAUAAUUGCCAUCAACAAUAUUUUGAGGCAGUAAAACCCCUUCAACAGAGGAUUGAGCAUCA` gave a bound/input enrichment of 0.203 ratio.
`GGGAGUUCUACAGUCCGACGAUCUUGUGCAUAUGAUGCUUGAGAUGGUUUUGCAGAUGCAGACAUCGCUGCAAGGUCAUUCUAACCGAGACAAGCGGUAUUUUAAACCUUUGAAAGGAAUGGAUGUAACUGUACGUUGGUACACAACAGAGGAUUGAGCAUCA` has a bound/input enrichment of 0.164 ratio.
With `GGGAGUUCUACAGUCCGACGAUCGAACCACUUGAAGAAAAUUGCGCUAAAGCCCUGACUUUAAGGAUACAUGAUUCUUUGAAUAACCGCCUUCCAAUUGGCCUUGUGCCUACUAAUUCAACAAACACUGUCAUGGACCAAAAACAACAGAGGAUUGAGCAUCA` the bound/input enrichment was 0.235 ratio.
`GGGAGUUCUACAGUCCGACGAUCGGAAUGCAGCCUGCUCACAGCGCCCUGAUGCCCUCCGUGACACACAUACCCACCCCUCCACACCGAACACAAGUCCCCCGGUGCAUGCACCAUGCCCACUGCCUUUCUUUGCACUGAUGUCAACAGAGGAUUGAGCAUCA` gave a bound/input enrichment of 0.373 ratio.
The bound/input enrichment of `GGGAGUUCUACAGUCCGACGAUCACCCAGGCUGACGAGGACCCUCAGAUGUCCAUGGUUGAAGACUGUCAUGCGUCAGAACAUAACCGCCCUAUCUCCUCCGUUCAGUCUCACCCCAGCCAGUCAGUCCGUUCGGUCAGCAGUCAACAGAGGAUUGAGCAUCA` is reported as 0.0739 ratio.
`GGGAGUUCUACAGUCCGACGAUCAAAUUCAAAGGCCCCUUCACAGAUGUAGUCACUACAAAUCUUAAAUUGCAAAAUCCAUCGGACCGAAAAGUGUGUUUCAAAGUGAAGACUACAGCACCUCGCCGGUACUGUGUGCGGCCCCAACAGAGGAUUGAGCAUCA` gave a bound/input enrichment of 0.358 ratio.

Series 4 — method: protein binding microarray; form: double-stranded DNA, one strand shown; matrix: in vitro; concentration: not given; relative to: not given; direction: higher = stronger binding
Target: Histone acetyltransferase KAT6A, winged helix 2, GST fusion (KAT6A, Homo sapiens, UniProt Q92794, residues 85-181)
Notes: 8-mer, flanks averaged, mean of 2 arrays, mostly near background
Construct (chain): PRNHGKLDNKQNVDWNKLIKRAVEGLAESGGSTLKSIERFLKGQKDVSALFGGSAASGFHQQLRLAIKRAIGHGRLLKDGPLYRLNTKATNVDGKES
The E-score of `GATCTCCC` is reported as -0.0755.
`GCTCACCA` gave an E-score of 0.111.
The E-score of `CAATACCG` is reported as -0.192.
For `GTATACTA`, the E-score was -0.149.
The E-score of `CCCGGGGC` is reported as 0.236.
With `AATAAGCG` the E-score was -0.133.
With `CCTCTGCG` the E-score was -0.00246.
`GCCCGTTA` gave an E-score of -0.0439.
`GCGTGAAC` has an E-score of 0.12.
`GCAGAGCC` gave an E-score of 0.167.
For `CAGTGGGC`, the E-score was 0.0923.
For `TCGACCAA`, the E-score was -0.000835.
`CCCAGGGC` gave an E-score of 0.147.
`AAAGTATA` has an E-score of -0.129.
The E-score of `CCTCTCGC` is reported as -0.0931.
With `GGGCCATA` the E-score was 0.159.
`GAGCAATA` gave an E-score of 0.0393.
The E-score of `CCGATAGC` is reported as -0.227.
The E-score of `CCCTACAC` is reported as -0.0752.
`ATCTTACG` gave an E-score of -0.0653.
The E-score of `ATGCTAAG` is reported as -0.0339.
`TGTATTAA` has an E-score of -0.0127.
For `GAACTCGA`, the E-score was -0.0337.
`AATTTAAG` gave an E-score of 0.0594.
`ACAGGACA` has an E-score of 0.143.
